Experimental data collected from several papers.
Each line is one published result; not all experiments were run side by side. Several values in a cell are separate wells, animals, samples, runs or records. pIC50, pKi: −log10 of the molar value.
Target: Carbonic anhydrase 9 (CA9, Homo sapiens, UniProt Q16790)
Effect on: enzyme activity
Action: inhibitor

NS(=O)(=O)c1ccc(N/N=C2\C(=O)N(CC(=O)Nc3ccccc3Br)c3ccccc32)cc1  pKi (with preincubation): 6.40
NS(=O)(=O)c1ccc(NC(=O)NN[C@@H]2O[C@H](CO)[C@H](O)[C@H](O)[C@H]2O)cc1  pIC50: 7.19
COc1ccc(/C(C)=N/NC(=O)CSc2nc3ccccc3c(=O)n2CCc2ccc(S(N)(=O)=O)cc2)cc1  pKi (stopped-flow): 7.36
COCCOc1cc2ncnc(Nc3cccc(-c4cn(Cc5ccc(C(=O)Nc6ccc(S(N)(=O)=O)cc6)cc5)nn4)c3)c2cc1OCCOC  pKi (stopped-flow): 7.40
NS(=O)(=O)c1ccc(NC(=O)NN[C@@H]2O[C@H](CO)[C@@H](O)[C@H]2O)cc1  pIC50: 6.88
COCCOc1cc2ncnc(Nc3cccc(-c4cn(CCc5ccc(S(N)(=O)=O)cc5)nn4)c3)c2cc1OCCOC  pKi (stopped-flow): 8.03
C[C@H]1OC(OC[C@@H]2OC(Oc3cc4oc(=O)ccc4cc3O)[C@@H](O)[C@H](O)[C@H]2O)[C@H](O)[C@@H](O)[C@@H]1O (some centres unmarked)  pIC50: 6.61
Cc1ccc(S(=O)(=O)Nc2cccc(C)c2C)cc1  pIC50: 6.49
COCCOc1cc2ncnc(Nc3cccc(-c4cn(CC(=O)Nc5ccc(S(N)(=O)=O)cc5)nn4)c3)c2cc1OCCOC  pKi (stopped-flow): 6.35
COc1cc2ccc(=O)oc2cc1OC1OC(COC2OCC(O)(CO)C2O)C(O)C(O)C1O (centres unmarked)  pIC50: 7.07
NS(=O)(=O)c1ccc(NC(=O)NN[C@@H]2OC[C@H](O)[C@H](O)[C@H]2O)cc1  pIC50: 7.04
CC(C)c1ccc2c(c1)CC[C@H]1[C@](C)(C(=O)O)CCC[C@]21C  pIC50 (stopped-flow; pH 7.4): 7.03 and ~7.03
COCCOc1cc2ncnc(Nc3cccc(-c4cn(-c5ccccc5S(N)(=O)=O)nn4)c3)c2cc1OCCOC  pKi (stopped-flow): 7.74
NS(=O)(=O)c1ccc(C(=O)O)cc1  pIC50: 5.92

Some of these lines once more:
NS(=O)(=O)c1ccc(NC(=O)NN[C@@H]2O[C@H](CO)[C@@H](O)[C@H]2O)cc1  pIC50: 6.88
